Measured values from different studies.
Protocols differ between the studies behind these lines.
Sequence of UniProt P49116 (whole entry, looked up): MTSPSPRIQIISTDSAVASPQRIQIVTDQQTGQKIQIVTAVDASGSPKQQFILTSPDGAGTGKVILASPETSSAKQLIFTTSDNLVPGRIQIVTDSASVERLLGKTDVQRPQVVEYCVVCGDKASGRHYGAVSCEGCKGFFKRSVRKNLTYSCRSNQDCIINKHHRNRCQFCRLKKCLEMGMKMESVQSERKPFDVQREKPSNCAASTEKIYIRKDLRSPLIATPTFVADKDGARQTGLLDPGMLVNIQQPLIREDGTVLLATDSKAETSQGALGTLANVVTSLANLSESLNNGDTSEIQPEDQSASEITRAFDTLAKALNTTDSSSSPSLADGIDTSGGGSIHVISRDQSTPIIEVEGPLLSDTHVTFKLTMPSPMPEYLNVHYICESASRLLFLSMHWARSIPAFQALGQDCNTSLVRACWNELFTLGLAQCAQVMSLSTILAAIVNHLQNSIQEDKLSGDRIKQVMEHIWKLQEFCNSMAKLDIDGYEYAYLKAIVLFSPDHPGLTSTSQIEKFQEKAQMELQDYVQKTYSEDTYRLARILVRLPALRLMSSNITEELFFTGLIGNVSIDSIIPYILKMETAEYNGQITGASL

SMILES	target or system	test	test system	conditions	scale	measurement	result
O=C(Nc1ccc(OC(F)(F)Cl)cc1)c1cnc(N2CC[C@@H](O)C2)c(-c2ccn[nH]2)c1	–	per laboratory record, measured: lipase increase	human patients	oral, dose not given, dose-finding study	–	grade ≥3 event rate	1.5%
Nc1ncn([C@H]2C[C@H](O)[C@@H](CO)O2)c(=O)n1	OCI-Ly1	–	–	0.1 µM, 120 h	–	viability	41.6%
O=C(COc1ccc(Cl)cc1)NC12CC(c3nnc([C@H]4C[C@@H](OC(F)(F)F)C4)o3)(C1)C2	–	measured: Nausea	human	oral, dose not given, 14 days	–	adverse event incidence	2.9%
CCc1cc(C(=O)NC)c2nccc(N3CCc4c(cc(Cn5ccnc5)cc4-c4cn(C)nc4C(F)(F)F)C3=O)c2c1	–	–	Sprague Dawley rat, male, plasma	oral, 100 mg/kg once daily, 7 days, toxicokinetic satellite group	–	AUC(0-last)	53300 ng·h/mL
C=CC(=O)N1CCC(c2ccc(C(N)=O)c(-c3ccc(Oc4ccccc4)cc3)n2)CC1	–	–	relapsed/refractory mantle cell lymphoma patients	oral, 100 mg twice daily, part, CTCAE v4.03	–	TEAE rate	50%
CNCc1ccc(-c2[nH]c3cc(F)cc4c3c2CCNC4=O)cc1	–	–	human patients	oral, 600 mg twice daily, grade 4	–	incidence of dyspnoea	0%
CCCNC(C)C(=O)Nc1ccccc1C (centres unmarked)	Nuclear receptor subfamily 2 group C member 2, ligand-binding domain (Homo sapiens, UniProt P49116)	SPR imaging	–	–	–	Kd	1.36 nM
COc1cc(C(=O)O)ccc1OS(=O)(=O)O	–	–	human plasma	median	–	plasma concentration	379 nM
C[C@@H]1CN(c2c(F)c(N)c3c(=O)c(C(=O)O)cn(C4CC4)c3c2F)C[C@H](C)N1	–	starch gel membrane permeability	Gram-negative envelope surrogate	200 µM, 30 min, pH 7.4	–	amount permeated	0.79 nmol
COc1cccc2c1c(O)c(C(=O)N(C)c1ccc(C(F)(F)F)cc1)c(=O)n2C	–	–	mouse, CP model, serum	0.154 µmol/kg, 4 weeks	–	serum AST	no effect
O=c1c(O)c(-c2cc(O)c(O)c(O)c2)oc2cc(O)cc(O)c12	–	–	human plasma	mean, both sexes	–	plasma concentration	841 nM
O=C(O)C1=CC(=C(c2ccc(O)c(C(=O)O)c2)c2ccc(O)c(C(=O)O)c2)C=CC1=O	–	ELISA	mouse B16-F10 tumour-bearing, serum	dose not given	reference: vehicle	serum C-reactive protein level	decreased
O=C(O)CCNc1cc(N2CCc3ccccc3CC2)nc(-c2ccccn2)n1	OCI-Ly1	–	–	1 µM, 120 h	–	viability	106%
O=C(O)CCC(=O)O.[2H]C([2H])([2H])Oc1cc(C)c2[nH]ccc2c1CN1CC[C@@H](C2CC2)C[C@H]1c1ccc(C(=O)O)cc1	–	multiple ascending dose	healthy Chinese subjects	200 mg once daily	–	subjects with elevated ALT TEAE	0%
CNC(=O)c1cc(Oc2ccc(NC(=O)Nc3cc(C(C)(C)C)nn3-c3ccc4ncccc4c3)c(F)c2)ccn1	–	measured: worst grade 2	human	oral, dose not given, cycles 1 and 2, High Cmax subgroup	–	patients with nervous system disorder AE	28%
C[C@@H]1CCO[C@H]2Cn3cc(C(=O)NCc4ccc(F)cc4F)c(=O)c(O)c3C(=O)N12	–	–	human paediatric patients, weight 6 to under sample A kg, plasma	oral, 8 mg granules, steady state, geometric mean, population PK post-hoc, N 2	–	AUC(0-24)	34100 ng·h/mL
N#Cc1ccc2c(c1)[C@H]1CCCN(C(=O)c3ccc4[nH]cnc4c3)[C@H]1C2	–	–	human	10 mg, day 7	–	maximum ACTH level	16.1 pmol/L
CN(C)C(=N)N=C(N)N	–	measured: mild diarrhea or headache	human male subjects	oral, 500 mg, 8 days, crossover trial	reference: subjects	drug-related adverse events	8.3%
C[C@@H](N)C1CCN(S(=O)(=O)c2cccc3cnccc23)CC1	–	–	healthy volunteers	150 mg, fasted	–	participants, with TEAEs, treatment-related	33.3%
C=CC(=O)Nc1cc(Nc2nccc(-c3cn(C)c4ccccc34)n2)c(OC)cc1N(C)CCN(C)C	–	–	human plasma	5 h, storage stability, LLOQ sample	–	recovery	92.3%
O=C(O)/C=C/c1ccccc1	–	–	human plasma	median, both sexes	–	plasma concentration	5510 nM
CO[C@H]1/C=C/O[C@@]2(C)Oc3c(C)c(O)c4c(O)c(c(/C=N/N5CCN(C)CC5)c(O)c4c3C2=O)NC(=O)/C(C)=C\C=C\[C@H](C)[C@H](O)[C@@H](C)[C@@H](O)[C@@H](C)[C@H](OC(C)=O)[C@@H]1C	–	starch gel membrane permeability	Gram-negative envelope surrogate	200 µM, 20 min, pH 7.4	–	amount permeated	0.7 nmol
COc1ncc(-c2nc3c(n2C(C)C)[C@H](c2ccc(Cl)cc2)N(c2cc(Cl)cn(C)c2=O)C3=O)c(OC)n1	–	–	human patients, plasma	oral, 12.5 mg, high-dose arm, cycle 1 day 1	–	AUC(0-t) geometric mean	1480 ng·h/mL
